Measurements from different studies.
Lines come from different studies, so protocols differ. Numbers after ± are the reported error.

SMILES	test	test system	conditions	scale	quantity	value
Cc1nc2cccc(OCC(C)(C)C(=O)NC(C)C)c2c(N)c1C(=O)O		male CD-1 mouse, bone marrow	oral, 2000 mg/kg, 48 h		micronucleated normochromatic erythrocytes	1.1 per 2000 PCEs
CNC(=O)c1cc(Oc2ccc(NC(=O)N(c3ccc(Cl)c(C(F)(F)F)c3)[C@@H]3O[C@H](C(=O)O)[C@@H](O)[C@H](O)[C@H]3O)cc2)ccn1		mouse, Oatp1b2 knockout, plasma	oral, 10 mg/kg, without rifampin, geometric mean		AUC(0-7.5 h)	31400 ng·h/mL
CC[C@H](C)CCCCC(=O)N[C@@H](CCN)C(=O)N[C@H](C(=O)N[C@@H](CCN)C(=O)N[C@H]1CCNC(=O)[C@H]([C@@H](C)O)NC(=O)[C@H](CCN)NC(=O)[C@H](CCN)NC(=O)[C@H](CC(C)C)NC(=O)[C@@H](Cc2ccccc2)NC(=O)[C@H](CCN)NC1=O)[C@@H](C)O		ESKD on long-term intermittent haemodialysis	intravenous infusion, 0.75 mg/kg single dose over 1 h, arithmetic mean		volume of distribution (Vz)	32.4 L
CCc1cc(C(=O)NC)c2nccc(N3CCc4c(cc(Cn5ccnc5)cc4-c4cn(C)nc4C(F)(F)F)C3=O)c2c1		Sprague Dawley rat	oral, 50 mg/kg once daily, 7 days	reference: vehicle	change in gastrocnemius weight	-2.72%
COc1ncc(-c2nc3c(n2C(C)C)[C@H](c2ccc(Cl)cc2)N(c2cc(Cl)cn(C)c2=O)C3=O)c(OC)n1		human patients, plasma	oral, 400 mg, high-dose arm, cycle 1 day 1		AUC(0-t) geometric mean	81700 ng·h/mL
N#Cc1ccc2c(c1)[C@H]1CCCN(C(=O)c3ccc4[nH]cnc4c3)[C@H]1C2		human males	40 mg, day 7		total testosterone level	14.6 nmol/L
COc1cc(Nc2ncc3c(n2)-c2ccc(Cl)cc2C(c2c(F)cccc2OC)=NC3)ccc1C(=O)O		cancer patients	oral, dose not given, all grades any attribution, added: pembrolizumab		patients with sore throat	13%
Nc1ccn([C@@H]2O[C@H](CO)[C@@H](O)C2(F)F)c(=O)n1	measured: dFdU	human, plasma	intravenous, 800 mg/m^2, added: after paricalcitol		Tmax, mean	1.06 h
C[C@H]1CN(C(=O)CC#N)[C@]12CCN(c1ncnc3[nH]ccc13)C2		healthy human	oral, 12 mg single		subjects with Headache	0%
CNC(=O)c1ccc(-c2cnc3ncc(Cc4ccc5ncccc5c4)n3n2)cc1F	measured: Pruritus, all grades	cancer patients	oral, dose not given, dose escalation, any causality		patients with adverse event	13%
C[C@@H]1OC(=O)[C@H](Cc2ccccc2)[C@H]1O	soil adsorption	tested soils	geometric mean		Freundlich coefficient KF	2.12 mL/g
CCOC(=O)c1ccc2nc(NC(=O)c3cccs3)sc2c1	haemolysis	sheep erythrocytes	1 h, pH 7.5		HC50	> 128 µg/mL
Cc1nc(-c2cnc(NC(C)C)n(C)c2=O)ccc1Oc1ccnc(-c2cnn(C)c2)c1		Beagle dog, male, plasma	oral, 10 mg/kg, crossover study, mean		half-life	9.23 h
CCCOc1ccc(NS(=O)(=O)c2cc(Cl)cc(Cl)c2O)cc1F	colloidal aggregate formation, dynamic light scattering	50 mM potassium phosphate buffer	200 µM, pH 7.0, 1% DMSO	higher = more aggregation	DLS scattered light intensity	411000 counts/s
CC(=O)c1c(C)c2cnc(Nc3ccc(N4CCNCC4)cn3)nc2n(C2CCCC2)c1=O	LC-MS/MS	human, plasma	oral, 125 mg, cycle 1 day 15, added: neratinib 240 mg		Ctrough	163 ng/mL
CC(=O)N(C)[C@H]1CCN(C(=O)c2cnc3c(c2)C[C@](C)(c2ccc(F)cc2)N3)C1		healthy male subjects, multiple rising dose	oral, 15 mg once daily		serious adverse events	0%
COc1cc(N)c(Cl)cc1C(=O)NC1CCN(CCCOc2ccc(F)cc2)CC1OC (centres unmarked)		male Hartley guinea pig, anaesthetized	intravenous, 0.3 mg/kg, baseline before infusion		QTc interval	354 ± 0.5 ms
Cc1cc(-c2nnc(N)nc2-c2ccc(F)cc2)cc(Cl)n1	measured: Vomiting	human phase Ia/Ib colorectal cancer, immunotherapy-naive	oral, dose not given		patients with treatment-related adverse events	32%

SMILES	test	test system	conditions	scale	quantity	value
Cc1cc(Nc2cc3ncccc3c(N[C@@H]3C[C@H]4CC[C@@H](C3)N4CCC#N)n2)n[nH]1		human	80 mg, day 14, geometric mean		Ctrough	0.0814 ng/mL
CCCCCCCCCCCCCCCC(=O)N[C@@H](CCC(=O)NCCCC[C@@H]1NC(=O)[C@H]([C@@H](C)CC)NC(=O)[C@@H](NC(=O)[C@@H]2CCCN2C(=O)[C@H](Cc2ccccc2)NC(=O)[C@H](Cc2c[nH]cn2)NC(=O)[C@@H](NC(=O)[C@H](CC(=O)O)NC(=O)CC(C)C)[C@@H](C)O)CSSC[C@@H](C(=O)N[C@@H](CCCCN)C(N)=O)NC(=O)CNC(=O)[C@H](CCCCN)NC(=O)[C@H](CO)NC(=O)[C@H](CCCNC(=N)N)NC(=O)[C@@H]2CCCN2C(=O)[C@H](CCC(=O)O)NC(=O)[C@H](Cc2ccccc2)NC1=O)C(=O)O		healthy volunteers, plasma	subcutaneous, 45 mg single, lyophilised formulation		CL/F	19.3 ± 4.03 mL/min
CN(C(=O)n1cnc(-c2ccc[n+]([O-])c2)c1)[C@H]1CC[C@H](O)CC1		rat, cerebellum	oral, 10 mg/kg single dose, 24 h		tissue concentration	5.6 ± 4.4 ng/g
Cc1cc(N2CCc3c(c(C)nn3CC34CCC(NC(=O)[C@@H]5COCCN5)(CC3)CC4)C2)c2cnn(C)c2n1	LC-MS/MS	129/Sv mice	oral, 15 mg/kg, 3 h		blood concentration	362 ± 184 nM
Cc1ccc(C(=O)N(CCCN)C(c2nc3snc(C)c3c(=O)n2Cc2ccccc2)C(C)C)cc1 (centres unmarked)	mucosal inflammation grade ≥3 (CTCAE)	human patients	intravenous, 7 mg/day		patients with adverse event	0%
C[C@@H](Oc1ccc(S(C)(=O)=O)cc1C(=O)N1C[C@@H]2C[C@]2(c2cc(C(F)(F)F)on2)C1)C(F)(F)F		young healthy humans, urine	oral, 50 mg once daily, 0 to 24 h, multiple dosing		fraction excreted in urine at steady state	5.69%
COc1ccc(Br)c(CCNS(=O)(=O)c2ccsc2C(=O)O)c1	colloidal aggregate formation, dynamic light scattering	50 mM potassium phosphate buffer	200 µM, pH 7.0, 1% DMSO	higher = more aggregation	DLS scattered light intensity	458000 counts/s
OC[C@H]1O[C@@H](c2ccc(Cl)c(Cc3ccc(O[C@H]4CCOC4)cc3)c2)[C@H](O)[C@@H](O)[C@@H]1O		Japanese type 1 diabetes patients, blood	2.5 mg, day 28	reference: baseline	change in Total cholesterol	6.54 mg/dL
O=C(O)CC[C@H](NC(=O)N[C@@H](CCCCNC(=O)[C@H](Cc1ccc2ccccc2c1)NC(=O)[C@H]1CC[C@H](CNC(=O)CN2CCN(CC(=O)O)CCN(CC(=O)O)CCN(CC(=O)O)CC2)CC1)C(=O)O)C(=O)O		male BALB/c nude mice, LS174T-PSMA xenografts, spleen	intravenous, 0.3 nmol, 2 h, radiolabelled (111In or 99mTc)	reference: tumour over spleen	tumour-to-tissue ratio	43.5 ± 25
Cc1cc(NC2CCN(C(=O)OC3CCN(C(=O)/C=C/CN(C)C)C3)CC2)n2ncc(C(C)C)c2n1 (centres unmarked)	Phase I dose escalation CTCAE v4.0, measured: pain in extremity	patients with advanced solid tumours	dose not given, TIW dosing any grade		patients with adverse event	0%
CNC(=O)c1cc(Oc2ccc(NC(=O)Nc3cc(C(C)(C)C)nn3-c3ccc4ncccc4c3)c(F)c2)ccn1	measured: worst grade 1	human	oral, dose not given, cycles 1 and 2, Low Cmax subgroup		patients with any AE of special interest	35%
COc1cccc(-c2n[nH]c(SCc3ccccn3)n2)c1OC		Sprague-Dawley rat, plasma	oral, 100 mg/kg	reference: female over male	Cmax ratio	1.26
CCCOc1ccc(-c2ccc(C#N)cc2)cc1	measured: compound	human pregnant women, male fetuses, cord serum	dose not given, paired maternal-cord samples, mean		concentration	1.34 ng/mL
CNc1ccc(-c2nc3ccc(O)cc3s2)cc1 [carbon-11 labelled]	microPET/CT imaging	B6SJL mouse, normal, heart	intravenous, 15 min		SUV	0.854 ± 0.267
O=C(Nc1nc2cccc(-c3ccc(CN4CCS(=O)(=O)CC4)cc3)n2n1)C1CC1	measured: somnolence	rheumatoid arthritis patients	oral, 200 mg once daily, 4 weeks, any relatedness		treatment-emergent adverse events	8.3%
O=C(Nc1cnccc1Cl)N1CCN(Cc2ccc3c(c2)OC(F)(F)O3)CC1	multiple ascending dose	young men	25 mg, treatment-emergent adverse events		alanine aminotransferase increased	0%
CC(C(=O)NCC(=O)NCC(CNC(=O)CNC(=O)C(C)N1CCN(CC(=O)[O-])CCN(CC(=O)[O-])CCN(CC(=O)[O-])CC1)(CNC(=O)CNC(=O)C(C)N1CCN(CC(=O)[O-])CCN(CC(=O)[O-])CCN(CC(=O)[O-])CC1)CNC(=O)CNC(=O)C(C)N1CCN(CC(=O)[O-])CCN(CC(=O)[O-])CCN(CC(=O)[O-])CC1)N1CCN(CC(=O)[O-])CCN(CC(=O)[O-])CCN(CC(=O)[O-])CC1.[Gd+3].[Gd+3].[Gd+3].[Gd+3] (centres unmarked)	ICP-MS	cynomolgus monkey	58 days	reference: dose	cumulative faecal excretion	0.4%
